Results of several laboratories.
Each line is one published result; not all experiments were run side by side. Values joined by “and” are separate records of one study, mostly repeats; a detail may differ. pEC50, pIC50: −log10 of the molar value.
Organism: SARS-CoV-2

Substance = Clc1cnn(CCCCN2CCN(c3ncccn3)CC2)c1; test = viral replication, GFP plate reader screen; conditions = cell-based; quantity = pEC50; value = 5.63
Substance = Cc1nn(-c2ccc(Cl)cc2)c2c1C(c1ccc(Cl)cc1Cl)C(C#N)=C(N)O2 (stereo not shown); test = RT-qPCR, measured: viral RNA; system = Vero; conditions = 10 µM; how to read = higher means less virus; quantity = Ct value; value = 25.4 cycles
Substance = CN[C@@H](C)C(=O)N[C@H](C(=O)N1CCC[C@H]1C(=O)Nc1snnc1-c1ccccc1)C1CCCCC1; test = viral replication; system = Vero E6, USA-WA1/2020; conditions = 2.5 µM; quantity = inhibition; value = 42.2%
Substance = CCC(=O)c1ccc2c(c1)N(CCCN1CCN(CCO)CC1)c1ccccc1S2; test = viral replication, high-content imaging screen; conditions = cell-based; quantity = pEC50; value = < 4.00
Substance = Cc1noc2c(NC3CCOCC3)cc(-c3cccc(C(F)(F)F)c3)nc12; test = cytopathic effect; system = USA_WA1/2020; conditions = round 1, 5-point; quantity = efficacy; value = 41.3%
Substance = O=c1[nH]c(=O)n([C@H]2C[C@H](O)[C@@H](CO)O2)cc1/C=C/Br; conditions = concentration not given, Paris laboratory; quantity = viral replication inhibition; value = inactive
Substance = CCCCNC(=O)C1CCCN(Cc2nc(-c3ccc(Cl)cc3)oc2C)C1 (stereo not shown); test = cytopathic effect; system = USA_WA1/2020; conditions = round 2, 5-point; quantity = efficacy; value = 51.9%
Substance = Cc1ccccc1CN1CCN(CCOC(c2ccccc2)c2ccccc2Cl)CC1 (stereo not shown); test = viral replication, GFP plate reader screen; conditions = cell-based; quantity = pEC50; value = < 4.00
Substance = COc1cccc2c(NCc3ccccc3)nc(-n3c(N)nc4ccccc43)nc12; system = Vero E6; conditions = concentration not given, NYC laboratory; quantity = viral replication inhibition; value = inactive
Substance = CN1c2c(nc(N)[nH]c2=O)NC[C@@H]1CNc1ccc(C(=O)N[C@@H](CCC(=O)O)C(=O)O)cc1; test = viral replication; system = Huh-7; quantity = pIC50; value = < 5.70
Substance = OC(CCCN1CCc2c(c3cc(F)ccc3n2-c2ccc(F)cc2)C1)c1ccc(F)cc1 (stereo not shown); test = viral replication, high-content imaging screen; conditions = cell-based; quantity = pEC50; value = < 4.00
Substance = Oc1ccccc1-c1nc(-c2cccs2)c(-c2cccs2)[nH]1; test = cytopathic effect; system = USA_WA1/2020; conditions = retest, 8-point, duplicates; quantity = efficacy; value = 15.4%
Substance = CC(C(O)c1ccc(O)cc1)N1CCC(Cc2ccccc2)CC1 (stereo not shown); conditions = concentration not given, Paris laboratory; quantity = viral replication inhibition; value = inactive
Substance = COc1ccc(C(CN(C)C)C2(O)CCCCC2)cc1 (stereo not shown); test = viral replication; system = Vero E6; conditions = inactive set pIC50 4; quantity = pIC50; value = < 5.00
Substance = CCOC(=O)[C@H]1O[C@@H]1C(=O)N[C@@H](CC(C)C)C(=O)NCCC(C)C; test = viral replication, GFP plate reader screen; conditions = cell-based; quantity = pEC50; value = 4.46
Substance = CNCCN(C)c1nc(NC(C)c2ccccc2)c2ccccc2n1 (stereo not shown); test = cytopathic effect, cell-based CPE; system = USA_WA1/2020; conditions = round 2, 5-point dilution; quantity = efficacy; value = 117%
Substance = Cc1nn(-c2ccc(Cl)cc2)c2c1C(c1ccc(-c3ccccc3)cc1)C(C#N)=C(N)O2 (stereo not shown); system = Vero C1008; conditions = 1 µM; how to read = baseline: positive control; quantity = viral titre log reduction; value = 0.0501 log10
Substance = CC(C)=CCN1Cc2cc(Cl)cc3[nH]c(=S)n(c23)C[C@@H]1C; test = viral replication; system = 293T-ACE2, USA-WA1/2020; quantity = EC90; value = 676 nM
Substance = Cc1[nH]c(/C=C2\C(=O)Nc3ccccc32)c(C)c1CCC(=O)O; test = viral replication, GFP plate reader screen; conditions = cell-based; quantity = pEC50; value = 5.75
Substance = CNC(=O)c1ccc(-c2cnc3ncc(Cc4ccc5ncccc5c4)n3n2)cc1F; system = Vero C1008; how to read = baseline: CC50 over EC50; quantity = selectivity index; value = 2.43
Substance = [N-]=[N+]=N[C@]1(CO)O[C@@H](n2ccc(N)nc2=O)[C@@H](F)[C@@H]1O; system = A549-hACE2, USA-WA1/2020 nLuc; conditions = concentration not given; quantity = antiviral activity; value = inactive
Substance = Cc1ccc(NS(=O)(=O)c2cccc(C(=O)NC3CCN(c4ncnc5[nH]cnc45)CC3)c2)cc1; system = A549-ACE2, Wuhan-Hu-1; conditions = 0.09145 µM; how to read = baseline: untreated; quantity = relative infection; value = 99.1%
Substance = O=C(/C=C/c1ccc(O)c(O)c1/C=C/c1ccc(O)c(O)c1)O[C@H](Cc1ccc(O)c(O)c1)C(=O)O; test = viral replication; system = Vero E6; conditions = 6.25 µM; quantity = CPE inhibition; value = 0%
Substance = COc1cc2c(cc1OC)C(=O)C(CC1CCN(Cc3ccccc3)CC1)C2 (stereo not shown); test = viral replication; system = Vero E6; conditions = inactive set pIC50 4; quantity = pIC50; value = < 5.00
Substance = Cc1cc(SCc2sc(-c3ccc(C(F)(F)F)c(F)c3)nc2C)ccc1OCC(=O)O; test = viral replication; system = Huh-7; quantity = pIC50; value = < 5.70
Substance = CC(C)=CCc1c(O)ccc(C(=O)/C=C/c2ccc(O)cc2)c1O; test = viral replication; system = Vero E6; conditions = 25 µM; how to read = baseline: mean of replicates; quantity = CPE inhibition; value = 0%
Substance = CCCN(CCC)CCNC(=O)c1cc(-c2ccc(Br)s2)nc2ccccc12; test = cytopathic effect; system = USA_WA1/2020; conditions = retest, 8-point, duplicates; quantity = maximum response; value = 76.6%
Substance = CC(C)(C)[C@H](NC(=O)C(F)(F)F)C(=O)N1C[C@H]2[C@@H]([C@H]1C(=O)N[C@H](C#N)C[C@@H]1CCNC1=O)C2(C)C; test = viral replication; system = Vero E6; conditions = 1 µM; quantity = inhibition; value = 88.1% and 98.8% and 106% and 104% and 88.5% and 119%
Substance = O=C(CCc1ccc(CC2CCN(Cc3c[nH]c4ccccc34)CC2)cc1)N1CCCC1; test = cytopathic effect; system = USA_WA1/2020; conditions = round 2, 5-point; quantity = efficacy; value = 36.2%
Substance = O=C(O[C@@H]1Cc2c(O)cc(O)cc2O[C@@H]1c1cc(O)c(O)c(O)c1)c1cc(O)c(O)c(O)c1; test = viral cytopathic effect; system = Vero E6; conditions = 1.562 µM; quantity = mean inhibition; value = 0%
Substance = Cc1nn(-c2ccc(Cl)cc2)c2c1C(c1ccc(I)cc1)C(C#N)=C(N)O2 (stereo not shown); test = RT-qPCR, measured: viral RNA; system = Vero; conditions = 10 µM; how to read = higher means less virus; quantity = Ct value; value = 24.4 cycles
Substance = COc1cc2c(cc1OC)CN(CCc1ccc(NC(=O)c3cccc4c(=O)c5cccc(OC)c5[nH]c34)cc1)CC2; test = viral replication, RT-qPCR; system = A549-ACE2; quantity = pIC50; value = 5.17
Substance = CO[C@H]1C[C@@H]2CC[C@@H](C)[C@@](O)(O2)C(=O)C(=O)N2CCCC[C@H]2C(=O)O[C@H]([C@H](C)C[C@@H]2CC[C@@H](O)[C@H](OC)C2)CC(=O)[C@H](C)/C=C(\C)[C@@H](O)[C@@H](OC)C(=O)[C@H](C)C[C@H](C)/C=C/C=C/C=C/1C; conditions = concentration not given, Paris laboratory; quantity = viral replication inhibition; value = inactive
Substance = NS(=O)(=O)c1cc(C2(O)NC(=O)c3ccccc32)ccc1Cl (stereo not shown); test = viral replication; system = Huh-7; quantity = pIC50; value = < 5.70
Substance = CCN(CC)Cc1ccc(Nc2ccnc3cc(Cl)ccc23)cc1O; test = viral replication; system = Vero E6, USA-WA1/2020; conditions = 2.5 µM; quantity = inhibition; value = 44.4%
Substance = COc1cc(C2C(C#N)=C(N)Oc3c2c(C)nn3-c2ccc(Cl)cc2)cc(OC)c1OC (stereo not shown); test = viral replication; system = Vero; conditions = 10 µM; quantity = viral reduction; value = 10.8%
Substance = COc1ccc2c(Sc3ccc(Cl)cc3)c(C(=O)NCCCN3CCCCC3)[nH]c2c1; test = cytopathic effect; system = USA_WA1/2020; conditions = round 2, 5-point; quantity = maximum response; value = 97.4%
Substance = COc1ccc(C[C@@H]2c3cc(Oc4cc(C[C@@H]5c6cc(O)c(OC)cc6CCN5C)ccc4O)c(OC)cc3CCN2C)cc1; test = viral replication; system = Vero E6; conditions = 3.125 µM; how to read = baseline: mean of replicates; quantity = CPE inhibition; value = 0%
Substance = elbasvir; test = viral replication; system = Huh-7; quantity = pIC50; value = < 5.70
Substance = CC(C)(Cc1c[nH]c2ccccc12)NCC(O)COc1ccccc1C#N (stereo not shown); test = viral replication, GFP plate reader screen; conditions = cell-based; quantity = pEC50; value = 4.77
Substance = CCN(CC)CCNC(=O)c1[nH]c2ccccc2c1Sc1ccc(Cl)cc1; test = cytopathic effect; system = USA_WA1/2020; conditions = retest, 8-point, duplicates; quantity = efficacy; value = 92%
Substance = CC1CCN(CCCC(=O)c2ccc(F)cc2)CC1; test = viral replication, RT-qPCR; system = A549-ACE2; quantity = pIC50; value = < 5.00
Substance = COc1cccc([C@@H](C)NCCCc2ccccc2Cl)c1; test = viral replication, high-content imaging screen; conditions = cell-based; quantity = pEC50; value = < 4.00

Repeated from above:
Substance = CCCCNC(=O)C1CCCN(Cc2nc(-c3ccc(Cl)cc3)oc2C)C1 (stereo not shown); test = cytopathic effect; system = USA_WA1/2020; conditions = round 2, 5-point; quantity = efficacy; value = 51.9%
Substance = Cc1ccccc1CN1CCN(CCOC(c2ccccc2)c2ccccc2Cl)CC1 (stereo not shown); test = viral replication, GFP plate reader screen; conditions = cell-based; quantity = pEC50; value = < 4.00
Substance = COc1cccc2c(NCc3ccccc3)nc(-n3c(N)nc4ccccc43)nc12; system = Vero E6; conditions = concentration not given, NYC laboratory; quantity = viral replication inhibition; value = inactive
